Published values pooled from the literature.
Parts stem from different laboratories: compare values within a part only. Substitutions count along the parent as printed.

Block 1
Target: CCNE2, cyclin fold, Cln2 fusion (human)
Technique: yeast growth competition, sequencing
Medium: yeast
Notes: weak parent motif
Baseline: not given
Reading: higher = stronger binding
Parent: SLBP docking peptide (human); ARYKRKLLINDFG
| Change | normalised enrichment score |
| --- | --- |
| G13C | 0.936 |
| F12S | 0.207 |
| N10M | 0.682 |
| R2H | 1.28 |
| K6P | -0.183 |
| A1V | 1.59 |
| K6T | 0.906 |
| I9N | 0.743 |
| K6W | 1.45 |
| R2D | 0.806 |
| D11F | 0.792 |
| R5K | 0.599 |
| Y3W | 0.454 |
| K6Y | 0.779 |
| N10I | 1.01 |
| D11T | 1.41 |
| K4P | 0.0486 |

Block 2
Target: Ras GTPase-activating protein-binding protein 1, C-terminal RGG region (G3BP1, Homo sapiens, UniProt Q13283)
UniProt Q13283, sequence (whole entry, looked up): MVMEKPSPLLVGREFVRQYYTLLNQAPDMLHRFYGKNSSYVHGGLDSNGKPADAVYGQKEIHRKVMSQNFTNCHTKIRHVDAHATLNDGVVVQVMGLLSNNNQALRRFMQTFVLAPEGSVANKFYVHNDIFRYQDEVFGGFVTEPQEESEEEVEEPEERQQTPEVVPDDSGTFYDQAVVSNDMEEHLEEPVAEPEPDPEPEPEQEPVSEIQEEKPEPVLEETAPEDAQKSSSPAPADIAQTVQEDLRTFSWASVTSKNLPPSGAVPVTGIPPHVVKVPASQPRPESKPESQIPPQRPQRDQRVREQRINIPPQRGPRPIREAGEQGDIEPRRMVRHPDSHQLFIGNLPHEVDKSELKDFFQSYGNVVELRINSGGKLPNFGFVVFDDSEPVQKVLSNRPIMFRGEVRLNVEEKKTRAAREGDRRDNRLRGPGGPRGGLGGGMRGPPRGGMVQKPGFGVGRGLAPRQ
Technique: RNA Bind-n-Seq
Molecule type: RNA
Medium: in vitro
Tested at: 1 µM
Notes: whole 134-nt RNA, ends assumed
Together with: 150 mM KCl
Baseline: input library
Reading: higher = stronger binding
Shared flanks, not repeated: GGGAGUUCUACAGUCCGACGAUC … UGGAAUUCUCGGGUGUCAAGG
| Sequence | log2 enrichment |
| --- | --- |
| UCCUGUGCUACACAUCGUAUGUACCGAAUCGGGGAAAAAGGGGUGGGGAAAAAAAGGGGAAAGUAUUAUGUUACGCCGUUCGGAUCUGCA | 1.06 |
| CACAGACAACACGCACCCACACAGACACAGAGGGAAGGGGUUGGAAUGGGGACAGGGUGCACAGCAGGGCGGGGUAGGACCCCAGCCCCU | -0.719 |
| UAACUUUAGAGGAGGAUCUGAUGGAAAUGGCAGUGGACGUGGAUUUGGGGAUGGCUAUAAUGGGUAUGGAGGAGGACCUGGAGGUGGCAA | -1.25 |
| CAAGUCCUGUGCUACACAUCGUAUGUACCGAAUCGGGUUUGGGAAAGGGUUUGGGAAAGUAUUAUGUUACGCCGUUCGGAUCUGCACUUC | 2.24 |
| UCAAGUCCUGUGCUACACAUCGUAUGUACCGAAUCGGGAAGGGAAGGGGAAGGGGAAAGUAUUAUGUUACGCCGUUCGGAUCUGCACUUC | 2.64 |
| CCUGUGCUACACAUCGUAUGUACCGAAUCGGGGAAAAAGGGGUUUUUGGGGUUUUUGGGGAAAGUAUUAUGUUACGCCGUUCGGAUCUGC | 0.475 |
| AGUCCUGUGCUACACAUCGUAUGUACCGAAUCGGGUUUUUGGGAGGGAAAAAAAGGGAAAGUAUUAUGUUACGCCGUUCGGAUCUGCACU | -0.196 |
| AAGUCCUGUGCUACACAUCGUAUGUACCGAAUCGGGAAAAAAAGGGUUUGGGAGGGAAAGUAUUAUGUUACGCCGUUCGGAUCUGCACUU | 1.15 |
| CCUGUGCUACACAUCGUAUGUACCGAAUCGGCCCCCCCGGGGCCCCCCCGGCCCCCCCGGGAAAGUAUUAUGUUACGCCGUUCGGAUCUG | -1.68 |
| CUCAAGUCCUGUGCUACACAUCGUAUGUACCGAAUCGGGAAAGGGAGGGAGGGAAAGUAUUAUGUUACGCCGUUCGGAUCUGCACUUCCA | 2.07 |
| UGGGAGGUGGAUUUUGUUUAUUUUUUUAGCCCAUUUCCAGGGGUGGGAAUUUUUUUUUAAUAUGUGUCAUGAAUAAAGUUGUUUUUGAAA | 3.04 |
| CAAGUCCUGUGCUACACAUCGUAUGUACCGAAUCGGAAAAAAAGGAAAGGAAAGGAAAGUAUUAUGUUACGCCGUUCGGAUCUGCACUUC | -1.86 |
| GCAGGAAGUAAAAACAAAUGGAAAUGCUUCGGAUAGUGAAAGGGGUGGGGGUUGCUAAGGAAAGGGUGGGAUGGGAGUGGGUAAAGAGUU | 1.83 |
| CCUGUGCUACACAUCGUAUGUACCGAAUCGGGGAAAAAAAGGGGAAAAAGGGGUUUGGGGAAAGUAUUAUGUUACGCCGUUCGGAUCUGC | 0.915 |

Block 3
Target: RING finger protein unkempt homolog, zinc fingers 1-6, GST-SBP tag (UNK, Homo sapiens, UniProt Q9C0B0, residues 30-357)
UniProt Q9C0B0, sequence (30-357, looked up): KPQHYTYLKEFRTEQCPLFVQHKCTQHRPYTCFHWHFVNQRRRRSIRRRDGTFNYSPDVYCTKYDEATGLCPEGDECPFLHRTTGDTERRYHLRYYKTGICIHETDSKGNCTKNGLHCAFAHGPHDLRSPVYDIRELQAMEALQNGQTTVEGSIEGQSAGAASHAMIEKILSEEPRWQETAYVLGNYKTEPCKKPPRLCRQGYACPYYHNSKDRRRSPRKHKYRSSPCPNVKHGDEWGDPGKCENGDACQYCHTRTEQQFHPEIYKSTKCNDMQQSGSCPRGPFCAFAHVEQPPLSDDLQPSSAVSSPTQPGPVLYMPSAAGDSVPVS
Technique: RNA Bind-n-Seq
Molecule type: RNA
Medium: in vitro
Tested at: not given
Notes: RNA with constant flanks, human and mouse sites, ends assumed
Baseline: input RNA pool
Reading: higher = stronger binding
Shared flanks, not repeated: GGGAGUUCUACAGUCCGACGAUC … CAACAGAGGAUUGAGCAUCA
| Sequence | bound/input enrichment |
| --- | --- |
| GGUCAUUCGUAUGUCACAUGUUUUAAACUGGGGUCUCUGUGUGUAUUUGUGUGUGUGUUCUACCUUUCUACCAUAUGUCAUCAGUUUAAUGGUAACUUUAUUUAUUUAAAAACAAAGAAA | 0.561 ratio |
| AUGGAGUAGAUUGUACAUUAAAUGUUUUGUUUCUUUACAUUUUUAUGUUCUGAGUUUUGAAAUAGUUUUAUGAAAUUUCUUUAUUUUUCAUUGCAUAGACUGUUAAUAUGUAUAUAAUAC | 2.78 ratio |
| GGUAUCCGAAGUCCCCGUGUUCGUCAUGUCGGCGUCUGUGGUGUCCGUCAUCUCCCGGUUCCUGGAGGAGUACUUGAGCUCCACUCCGCAGCGGCUGAAGUUGCUGGACGCCUAUCUCCU | 0.172 ratio |
| AAAGUCACCUCUCCUGUGUUGGUCAUUCAUGGUACAGAGGAUGAGGUCAUCGAUUUCUCCCAUGGCCUAGCGAUGUACGAGCGCUGUCCCCGAGCCGUGGAGCCCCUUUGGGUUGAAGGG | 0.127 ratio |
| AUCAAGGGUGAAAUCCCAUUCUGCUAGCAAAAUGCAGUAUUCACACCACUGUGAGCACCUUUUAGAGAGACUGAAUAAGCAACGGGAAGCGGGAUUUCUUUGCGACUGUACCGUAGUGAU | 0.608 ratio |
| CUUUUUCACUCCACUGCCCUAGGGGAGUUCAGCAACCUAAUGAUCUCUAUCUCUGAACAUCUCUUCAUCCCAUGCUCCAAGUCCAGCAACCUGCACCCUGGAACCAGGAGUGGACCCUAC | 0.185 ratio |
| UGUCUGACUUGCUGCUCCAGGGAUGUCAUAGUUAAAGUUGACCAGAUCUGUCACAAAAAUAGCAUCAAGUUCUUUACAGGAGAUGUUUUUGGCUACCAUGGAUACACAUUUGCCAAUCUA | 0.172 ratio |
| ACUGGAAAGACAGUUGCUACUGCAAGUCAAGAGAUAAUAAUCGCCAGCACAAAAGUUCUGGAAAUCCCACUUCUACCUGAAAAUAAUAUGUCAGCGAGUAUUGACUGUGCAGGUAUUUUA | 0.137 ratio |
| AAAAAACGGAACUUCUCUAAUAGUAUUGAUCUUCCUAGAAAGAGGAUCUCUAACUUCACCAGUAAGAACAUGAAGGAGGUUAAGAGAUCUCCAAAACAGUUGGCUGCUUACAUAAGUAGA | 0.749 ratio |
| UACAUGUUUUCUCUUGUGCAUCAAUUUAAAUGUUACAACCAUGUAAACUACUUCUCUUGUUAGAUAGAUUUUCACCUAGACUUUUUUUCCCAAAUCAGAAAAAAAAUACACACUAAAUAA | 0.987 ratio |
| ACCCUCUCUGGGGUUCAAGAAGAGUCCGCUCUUUGCUAUCUUCUCCAGGUUGAUGAGUUUAGGUUUUUGUUGGACUGUGGCUGGGAUGAACACUUCUCUGUGGACAUUAUUGAUUCCCUG | 0.195 ratio |

Block 4
Target: Interferon regulatory factor 5, full length, phosphomimetic (IRF5, Homo sapiens, UniProt Q13568-2, residues 1-514, S451D/S453D/S456D/S462D)
Technique: protein-binding microarray
Molecule type: double-stranded DNA, one strand shown
Medium: in vitro
Tested at: 940 nM top
Notes: 60-bp whole probe
Together with: salmon DNA 0.4 mg/ml
Baseline: random background probes
Reading: higher = stronger binding
Shared flanks, not repeated: GCCTAGCAC … GTCTTGATTCGCTTGACGCTGCTG
| Sequence | fitted relative affinity |
| --- | --- |
| GGGCATTTGGTTAGCGTATAGTGCTAG | -0.185 z-score |
| TCATTCCTGATCTCTGGTACTGTGCTA | 0.298 z-score |
| TCAGATTTTGTCCTCCCACTGTGCTAG | 0.242 z-score |
| CACGATTTCGGGTATCGAGACGTGCTA | 1.53 z-score |
| GACTGTTTCGGGTATCGGGACGTGCTA | 4.74 z-score |
| CTCACCGCCAACCCAGTTCCGTGCTAG | 0.82 z-score |
| TTAGGTCTCCTACTTCTTTAGTGCTAG | 0.059 z-score |
| TCAGCTGTTTTTCTCACACTGTGCTAG | 0.756 z-score |
| TTAGGTATCGCCTTTCGGTTAGTGCTA | 4.37 z-score |
| TTACAACTGGGGACTGGATTAGTGCTA | 0.0415 z-score |
| GACGAACTGGAGTATCGAGACGTGCTA | 0.65 z-score |
| GACGGTATCGACTATCGGTACGTGCTA | 5.37 z-score |
| TCATTTCCAATTCTCTTACTGTGCTAG | 1.52 z-score |
| GACTTTCTTTCAAATGAAGGAGTGCTA | 2.04 z-score |
| TCACTTTTCAGTCCCCTACTGTGCTAG | 1.68 z-score |
| GACGGTTTCCTTTTCCTGGCGTGCTAG | 2.77 z-score |
| TTAGATTTCATTATCGATTAGTGCTAG | 1.26 z-score |
| TTAGGTTCCCATTTCCTTTAGTGCTAG | 0.725 z-score |
| TCAGTCATCCATCTGAAACTGTGCTAG | 0.208 z-score |
| GACGGTTTCGGTTTCGGGAGGTGCTAG | 14.1 z-score |
| TCAATTCTCTACTTGTGACTGTGCTAG | 0.986 z-score |

Block 5
Target: ABI1, truncated, D143A, DHFR fusion (Arabidopsis thaliana)
Technique: DHFR PCA, deep sequencing
Medium: yeast
Notes: methotrexate growth selection, single substitutions
Together with: (+)-ABA 4.8 µM
Baseline: wild-type fitted maximum
Reading: higher = stronger binding
Parent: PYL1, truncated, DHFR fusion (Arabidopsis thaliana); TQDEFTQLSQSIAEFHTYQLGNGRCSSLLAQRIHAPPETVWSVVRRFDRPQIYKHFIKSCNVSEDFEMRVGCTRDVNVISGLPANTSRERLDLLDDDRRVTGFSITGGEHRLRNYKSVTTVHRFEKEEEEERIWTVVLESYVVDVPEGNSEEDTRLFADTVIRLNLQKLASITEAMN; partner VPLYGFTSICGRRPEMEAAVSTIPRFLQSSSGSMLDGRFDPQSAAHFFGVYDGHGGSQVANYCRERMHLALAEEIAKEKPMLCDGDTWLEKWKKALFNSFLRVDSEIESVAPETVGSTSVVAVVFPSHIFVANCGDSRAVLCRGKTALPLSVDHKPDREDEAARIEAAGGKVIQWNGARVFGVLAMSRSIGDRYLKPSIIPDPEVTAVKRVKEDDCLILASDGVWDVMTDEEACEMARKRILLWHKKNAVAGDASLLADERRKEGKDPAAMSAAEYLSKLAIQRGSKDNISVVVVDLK
| Change | relative binding score [%] |
| --- | --- |
| D65Y | 31.2 |
| C25F | 12.6 |
| T73K | 51.8 |
| K116C | 18.3 |
| G21T | 74.4 |
| Q31W | 13.6 |
| K168M | 29.4 |
| V136K | -6.64 |
| V70H | 13.3 |
| N22S | 75.7 |
| G102T | -11.6 |
| E147Y | 59.2 |
| A170I | -3.61 |
| Q10D | 86.8 |
| I33F | -4.45 |
| D92Q | 17.6 |
| G108D | 4.01 |
| S87C | 22.6 |
| R32Q | 68.5 |
| D75H | 77 |
